Experimental data collected from several papers.
Each line is one published result; not all experiments were run side by side. ± marks the error that the study gave.

| SMILES | tested on | test | test system | setting | how to read | measurement | value |
| --- | --- | --- | --- | --- | --- | --- | --- |
| CCC(=O)N(C)c1ccc(Cl)c(Cl)c1 | Salmonella typhimurium | Ames test | TA1535 | 0.05 mg/plate, with rat liver S9 | – | revertants | 16 ± 3.5 revertants/plate |
| CC[C@H](C)C(=O)N1CCC(NC(=O)Nc2ccc(OC(F)(F)F)c(F)c2)CC1 | – | – | healthy volunteers | oral, 2 mg single dose | – | subjects with feeling hot TEAE | 0% |
| COc1ccc(CNc2nc(N3CCC[C@H]3CO)ncc2C(=O)NNC(=O)c2cnc(N3CCC[C@H]3CO)nc2NCc2ccc(OC)c(Cl)c2)cc1Cl | Salmonella typhimurium | – | TA102 | 125 µg/plate, added: rat liver S9 | – | revertant count | 209 ± 22 |
| CN(C)CC1CCCCC1(O)c1cccc(O)c1 (stereo not drawn) | – | – | Caco-2 | 50 µM, 3 h, pH 6.8 | – | Papp B→A | 13.7 ×10⁻⁶ cm/s |
| Nc1nc2c([C@@H]3O[C@@H]4COP(=O)(O)O[C@H]5[C@@H](O)[C@H](n6cnc7c(=O)[nH]c(N)nc76)O[C@@H]5COP(=O)(O)O[C@H]4[C@H]3O)scc2c(=O)[nH]1 | – | – | – | – | relative to: parent monomeric nucleoside | relative emission quantum yield | ~39% |
| CN[C@](C)(C[18F])C(=O)O | A549 tumour model | – | host not given, liver | 2 h, tumour-bearing | – | tracer uptake | 2.3 %ID/g |
| O=C(O)CCC(NP(=O)(O)OCCC[C@@H](NC(=O)CCC(NC(=O)CCCCCNC(=O)c1ccc([18F])cc1)C(=O)O)C(=O)O)C(=O)O (stereo partly drawn) | PC-3 tumour model | – | host not given, tumour | intravenous, 2 h, tumour-bearing | – | tracer uptake | 0.38 %ID/g |
| CCOC(=O)CC[C@@H](NC(=O)c1ccc(N(C)Cc2ccc3[nH]c(C)nc(=O)c3c2)s1)C(=O)OCC | Mycobacterium tuberculosis | – | H37Rv | 10 µM, 24 h | – | uptake from medium | 74.6 ± 6.7% |
| C[C@@](O)(C(F)F)[C@H](NC(=O)c1ccc(C#CC#CC2CC2)cc1)C(=O)NO | – | – | dog, plasma | intravenous, 100 mg/kg | – | clearance | 12 mL/min/kg |
| O=C(O)CCC(NP(=O)(O)OCCC[C@@H](NC(=O)CCC(NC(=O)c1ccc([18F])cc1)C(=O)O)C(=O)O)C(=O)O (stereo partly drawn) | PC-3 tumour model | – | host not given, lung | intravenous, 2 h, tumour-bearing | – | tracer uptake | 0.29 %ID/g |
| COc1cc(C(=O)NCCOCCOCCOCCNC(=O)c2ccc([18F])nc2)ccc1NC(=O)C1NC(CC(C)(C)C)C(C#N)(c2ccc(Cl)cc2F)C1c1cccc(Cl)c1F (stereo not drawn) | SJSA-1 tumour model | – | host not given, bone | 1 h, tumour-bearing | – | tracer uptake | 0.61 %ID/g |
| CCN(CC)Cc1cc(Nc2c(C)cnc3cc(Cl)ccc23)ccc1O | BHK-21 DENV2 replicon cells | – | – | 24 h | – | CC50 | 44.6 ± 2.98 µM |
| O=C(O)CCC(NP(=O)(O)OCCC[C@@H](NC(=O)CCC(NC(=O)CCCCCNC(=O)CCCCCNC(=O)c1ccc([18F])cc1)C(=O)O)C(=O)O)C(=O)O (stereo partly drawn) | CWR22Rv1 tumour model | – | host not given, kidney | intravenous, 2 h, tumour-bearing | – | tracer uptake | 7.13 %ID/g |
| O=C(O)CC1C2CCCN3CCCC(CN1CCCc1ccc(Cl)c(Cl)c1)C23 (stereo not drawn) | HEK293T | – | – | – | – | CC50 | 83.3 µM |
| COc1ccc(CNc2nc(N3CCC[C@H]3CO)ncc2C(=O)NN)cc1Cl | Salmonella typhimurium | – | TA98 | 500 µg/plate, 48 h | – | revertant count | 43 ± 5 |

Repeated from above:
| SMILES | tested on | test | test system | setting | how to read | measurement | value |
| --- | --- | --- | --- | --- | --- | --- | --- |
| C[C@@](O)(C(F)F)[C@H](NC(=O)c1ccc(C#CC#CC2CC2)cc1)C(=O)NO | – | – | dog, plasma | intravenous, 100 mg/kg | – | clearance | 12 mL/min/kg |
| O=C(O)CCC(NP(=O)(O)OCCC[C@@H](NC(=O)CCC(NC(=O)c1ccc([18F])cc1)C(=O)O)C(=O)O)C(=O)O (stereo partly drawn) | PC-3 tumour model | – | host not given, lung | intravenous, 2 h, tumour-bearing | – | tracer uptake | 0.29 %ID/g |
